Published values pooled from the literature.
A part holds a random share of what one study measured. Changes are numbered by the printed parent chain.
Sequence of UniProt P42336 (whole entry, unmodified, looked up): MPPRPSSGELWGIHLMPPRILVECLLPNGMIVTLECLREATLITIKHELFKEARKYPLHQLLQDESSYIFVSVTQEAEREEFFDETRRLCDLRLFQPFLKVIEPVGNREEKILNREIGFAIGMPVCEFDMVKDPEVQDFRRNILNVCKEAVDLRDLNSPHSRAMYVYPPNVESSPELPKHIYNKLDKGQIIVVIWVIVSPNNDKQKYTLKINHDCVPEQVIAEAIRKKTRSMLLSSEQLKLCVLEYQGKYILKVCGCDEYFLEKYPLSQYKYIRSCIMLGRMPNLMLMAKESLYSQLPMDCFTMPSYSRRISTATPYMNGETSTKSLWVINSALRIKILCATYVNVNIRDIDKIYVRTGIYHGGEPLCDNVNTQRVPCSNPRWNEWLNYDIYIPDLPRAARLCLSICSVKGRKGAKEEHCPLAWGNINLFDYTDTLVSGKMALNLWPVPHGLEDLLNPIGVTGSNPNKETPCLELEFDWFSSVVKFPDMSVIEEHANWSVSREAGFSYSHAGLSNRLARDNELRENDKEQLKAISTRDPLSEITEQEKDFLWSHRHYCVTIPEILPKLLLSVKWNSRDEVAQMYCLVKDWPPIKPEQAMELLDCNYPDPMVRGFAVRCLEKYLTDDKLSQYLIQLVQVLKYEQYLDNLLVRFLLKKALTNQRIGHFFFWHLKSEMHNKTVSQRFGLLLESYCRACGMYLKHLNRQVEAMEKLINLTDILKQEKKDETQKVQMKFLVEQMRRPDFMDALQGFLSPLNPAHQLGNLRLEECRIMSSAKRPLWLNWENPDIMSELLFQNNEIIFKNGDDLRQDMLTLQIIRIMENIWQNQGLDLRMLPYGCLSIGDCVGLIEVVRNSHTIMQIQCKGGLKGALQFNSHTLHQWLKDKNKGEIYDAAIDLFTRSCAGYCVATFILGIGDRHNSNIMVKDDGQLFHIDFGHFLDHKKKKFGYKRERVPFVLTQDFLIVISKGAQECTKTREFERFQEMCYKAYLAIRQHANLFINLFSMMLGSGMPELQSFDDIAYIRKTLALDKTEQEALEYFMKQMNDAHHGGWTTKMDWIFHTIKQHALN
Sequence of UniProt P00519 (whole entry, unmodified, looked up): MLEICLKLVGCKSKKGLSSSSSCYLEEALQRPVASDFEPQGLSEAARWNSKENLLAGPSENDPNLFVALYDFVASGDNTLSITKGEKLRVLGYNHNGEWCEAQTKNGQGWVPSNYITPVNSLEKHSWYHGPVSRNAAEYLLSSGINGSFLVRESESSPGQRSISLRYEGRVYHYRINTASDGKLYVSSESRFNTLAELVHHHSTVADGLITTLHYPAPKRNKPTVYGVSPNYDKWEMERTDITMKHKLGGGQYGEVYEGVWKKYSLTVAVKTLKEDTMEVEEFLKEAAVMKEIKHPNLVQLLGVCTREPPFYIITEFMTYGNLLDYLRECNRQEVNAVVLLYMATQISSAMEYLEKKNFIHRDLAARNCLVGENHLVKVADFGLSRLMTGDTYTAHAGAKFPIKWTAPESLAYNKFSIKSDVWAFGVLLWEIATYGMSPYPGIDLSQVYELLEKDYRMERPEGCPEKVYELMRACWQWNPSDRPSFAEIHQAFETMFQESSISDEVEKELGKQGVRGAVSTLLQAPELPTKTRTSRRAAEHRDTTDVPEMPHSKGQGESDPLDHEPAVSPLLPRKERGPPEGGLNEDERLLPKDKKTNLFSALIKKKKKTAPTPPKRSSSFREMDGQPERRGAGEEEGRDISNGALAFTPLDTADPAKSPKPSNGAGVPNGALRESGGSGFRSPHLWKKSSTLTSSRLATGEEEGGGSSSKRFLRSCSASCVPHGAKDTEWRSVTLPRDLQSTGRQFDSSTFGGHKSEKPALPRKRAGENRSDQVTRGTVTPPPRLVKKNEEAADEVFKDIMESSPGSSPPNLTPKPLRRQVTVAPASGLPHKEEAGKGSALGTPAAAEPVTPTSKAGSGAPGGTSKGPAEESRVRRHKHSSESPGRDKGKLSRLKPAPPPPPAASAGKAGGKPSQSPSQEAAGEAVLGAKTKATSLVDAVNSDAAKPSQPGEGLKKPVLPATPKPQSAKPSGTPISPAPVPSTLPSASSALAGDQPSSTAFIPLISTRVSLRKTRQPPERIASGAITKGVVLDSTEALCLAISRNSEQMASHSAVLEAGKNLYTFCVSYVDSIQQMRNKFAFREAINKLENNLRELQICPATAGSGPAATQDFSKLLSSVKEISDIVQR
Sequence of UniProt O95835 (whole entry, looked up): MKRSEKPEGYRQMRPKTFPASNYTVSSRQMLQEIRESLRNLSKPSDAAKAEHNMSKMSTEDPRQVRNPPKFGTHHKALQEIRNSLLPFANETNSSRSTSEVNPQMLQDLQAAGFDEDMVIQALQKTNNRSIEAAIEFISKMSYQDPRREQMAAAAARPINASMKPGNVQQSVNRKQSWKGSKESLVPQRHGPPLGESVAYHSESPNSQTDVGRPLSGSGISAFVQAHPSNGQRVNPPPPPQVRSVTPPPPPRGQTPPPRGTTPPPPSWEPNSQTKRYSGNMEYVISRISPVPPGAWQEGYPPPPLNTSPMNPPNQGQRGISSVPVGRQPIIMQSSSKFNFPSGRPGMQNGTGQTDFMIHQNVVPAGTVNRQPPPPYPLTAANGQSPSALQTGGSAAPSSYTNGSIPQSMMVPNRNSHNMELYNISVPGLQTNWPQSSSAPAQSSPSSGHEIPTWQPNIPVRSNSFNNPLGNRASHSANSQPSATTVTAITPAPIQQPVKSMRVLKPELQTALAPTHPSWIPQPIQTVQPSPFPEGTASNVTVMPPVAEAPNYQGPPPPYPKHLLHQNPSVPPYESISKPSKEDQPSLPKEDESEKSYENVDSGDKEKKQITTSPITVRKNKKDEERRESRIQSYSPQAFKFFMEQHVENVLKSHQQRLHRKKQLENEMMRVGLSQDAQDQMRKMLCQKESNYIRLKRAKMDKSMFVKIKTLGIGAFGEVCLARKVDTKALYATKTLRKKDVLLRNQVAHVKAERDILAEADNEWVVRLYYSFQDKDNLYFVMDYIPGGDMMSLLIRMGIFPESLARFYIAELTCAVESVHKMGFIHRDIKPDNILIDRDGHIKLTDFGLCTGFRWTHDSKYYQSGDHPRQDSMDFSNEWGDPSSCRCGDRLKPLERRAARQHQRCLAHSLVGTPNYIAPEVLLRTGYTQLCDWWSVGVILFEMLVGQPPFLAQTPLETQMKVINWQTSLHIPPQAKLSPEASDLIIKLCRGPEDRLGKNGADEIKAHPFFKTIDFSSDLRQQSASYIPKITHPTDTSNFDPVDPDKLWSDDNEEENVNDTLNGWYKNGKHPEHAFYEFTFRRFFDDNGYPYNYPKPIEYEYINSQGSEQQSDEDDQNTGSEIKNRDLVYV
Sequence of UniProt Q6PHR2 (whole entry, looked up): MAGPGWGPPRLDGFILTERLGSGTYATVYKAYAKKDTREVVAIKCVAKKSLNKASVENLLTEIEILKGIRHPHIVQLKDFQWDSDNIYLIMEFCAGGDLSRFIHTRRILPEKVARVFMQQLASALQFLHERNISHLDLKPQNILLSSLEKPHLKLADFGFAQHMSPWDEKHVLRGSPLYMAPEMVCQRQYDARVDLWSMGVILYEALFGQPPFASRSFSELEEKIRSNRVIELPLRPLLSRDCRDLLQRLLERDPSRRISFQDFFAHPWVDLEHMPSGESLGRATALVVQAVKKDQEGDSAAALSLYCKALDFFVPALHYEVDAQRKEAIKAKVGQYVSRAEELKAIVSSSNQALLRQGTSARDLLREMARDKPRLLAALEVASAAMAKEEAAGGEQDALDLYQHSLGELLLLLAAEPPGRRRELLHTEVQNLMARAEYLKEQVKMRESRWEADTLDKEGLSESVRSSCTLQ
Sequence of UniProt Q9UL54 (whole entry, looked up): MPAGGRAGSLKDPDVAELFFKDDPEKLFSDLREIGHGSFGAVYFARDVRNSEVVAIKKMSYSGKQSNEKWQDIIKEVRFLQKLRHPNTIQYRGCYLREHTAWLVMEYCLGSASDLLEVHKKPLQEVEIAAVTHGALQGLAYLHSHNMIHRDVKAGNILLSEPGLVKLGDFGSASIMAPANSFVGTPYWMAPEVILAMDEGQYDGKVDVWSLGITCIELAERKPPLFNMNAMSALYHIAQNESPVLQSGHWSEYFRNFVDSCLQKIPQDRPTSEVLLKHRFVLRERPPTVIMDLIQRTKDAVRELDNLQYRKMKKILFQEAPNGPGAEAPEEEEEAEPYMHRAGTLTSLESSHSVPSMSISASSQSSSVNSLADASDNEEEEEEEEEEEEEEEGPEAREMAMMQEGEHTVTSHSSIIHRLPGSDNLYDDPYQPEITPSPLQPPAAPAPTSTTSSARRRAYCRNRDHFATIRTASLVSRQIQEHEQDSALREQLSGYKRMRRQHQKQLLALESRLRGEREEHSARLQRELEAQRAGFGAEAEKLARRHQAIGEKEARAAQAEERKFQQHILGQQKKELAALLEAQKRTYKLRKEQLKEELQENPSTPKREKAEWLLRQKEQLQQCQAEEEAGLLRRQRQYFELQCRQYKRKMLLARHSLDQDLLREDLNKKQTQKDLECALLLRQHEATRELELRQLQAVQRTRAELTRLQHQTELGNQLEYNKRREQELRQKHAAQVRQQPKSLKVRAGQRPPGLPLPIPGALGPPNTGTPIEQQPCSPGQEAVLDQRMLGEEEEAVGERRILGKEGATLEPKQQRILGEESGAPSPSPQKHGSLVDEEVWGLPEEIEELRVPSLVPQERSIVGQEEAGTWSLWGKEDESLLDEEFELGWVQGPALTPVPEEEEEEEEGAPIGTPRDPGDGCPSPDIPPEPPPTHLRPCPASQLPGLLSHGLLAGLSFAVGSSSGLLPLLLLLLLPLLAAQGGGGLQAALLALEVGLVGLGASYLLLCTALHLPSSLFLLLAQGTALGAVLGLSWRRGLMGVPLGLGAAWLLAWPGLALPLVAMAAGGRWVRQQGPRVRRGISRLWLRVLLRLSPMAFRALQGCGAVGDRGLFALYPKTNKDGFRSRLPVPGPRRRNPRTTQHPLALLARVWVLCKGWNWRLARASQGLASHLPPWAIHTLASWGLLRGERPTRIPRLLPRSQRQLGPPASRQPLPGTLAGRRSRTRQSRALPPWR

Set 1
SMILES: O=C1Cc2c([nH]c3ccc(Br)cc23)-c2ccccc2N1
Effect on: enzyme activity
Mode: inhibitor
Concentration: 0.5 µM
Relative to: control
target | remaining activity [%]
Fibroblast growth factor receptor 1 (FGFR1, Homo sapiens, UniProt P11362) | 99.4
Tyrosine-protein kinase FRK (FRK, Homo sapiens, UniProt P42685) | 97.4
Serine/threonine-protein kinase TAO2 (TAOK2, Homo sapiens, UniProt Q9UL54) | 94
Serine/threonine-protein kinase ULK2 (ULK2, Homo sapiens, UniProt Q8IYT8) | 90.1
Angiopoietin-1 receptor (TEK, Homo sapiens, UniProt Q02763) | 106
Dual specificity mitogen-activated protein kinase kinase 2 (MAP2K2, Homo sapiens, UniProt P36507) | 116
Wee1-like protein kinase (WEE1, Homo sapiens, UniProt P30291) | 87.7
Rhodopsin kinase GRK7 (GRK7, Homo sapiens, UniProt Q8WTQ7) | 100
Serine/threonine-protein kinase ULK3 (ULK3, Homo sapiens, UniProt Q6PHR2) | 83.2
Serine/threonine-protein kinase A-Raf (ARAF, Homo sapiens, UniProt P10398) | 104
Fibroblast growth factor receptor 3 (FGFR3, Homo sapiens, UniProt P22607) | 101
Tyrosine-protein kinase ABL2 (ABL2, Homo sapiens, UniProt P42684) | 84.9
Casein kinase I isoform gamma-3 (CSNK1G3, Homo sapiens, UniProt Q9Y6M4) | 103
MAP kinase-activated protein kinase 2 (MAPKAPK2, Homo sapiens, UniProt P49137) | 101

Set 2
SMILES: COc1ccc2c(O[C@@H]3C[C@H]4C(=O)N[C@]5(C(=O)O)CC5/C=C\CCCCC[C@H](NC(=O)OC5CCCC5)C(=O)N4C3)cc(-c3csc(NC(=O)C(C)C)n3)nc2c1C (stereo partly drawn)
Concentration: 1 µM
target | effect on | technique | setting | relative to | remaining binding
Serine/threonine-protein kinase LATS1 (LATS1, Homo sapiens, UniProt O95835) | cell-free assay | competition with immobilised ligand | – | – | 100%
Tyrosine-protein kinase ABL1 (ABL1, Homo sapiens, UniProt P00519, F317I) | – | KINOMEscan | F317I mutant, phosphorylated | control | 76%
Mitogen-activated protein kinase 6 (MAPK6, Homo sapiens, UniProt Q16659) | cell-free assay | competition with immobilised ligand | – | – | 93%
Tyrosine-protein kinase SYK (SYK, Homo sapiens, UniProt P43405) | cell-free assay | competition with immobilised ligand | – | – | 100%
Casein kinase I isoform gamma-1 (CSNK1G1, Homo sapiens, UniProt Q9HCP0) | cell-free assay | competition with immobilised ligand | – | – | 94%
Mitogen-activated protein kinase kinase kinase 5 (MAP3K5, Homo sapiens, UniProt Q99683) | cell-free assay | competition with immobilised ligand | – | – | 93%
Phosphatidylinositol 4,5-bisphosphate 3-kinase catalytic subunit alpha isoform (PIK3CA, Homo sapiens, UniProt P42336, E545A) | cell-free assay | competition with immobilised ligand | – | – | 100%
Vascular endothelial growth factor receptor 3 (FLT4, Homo sapiens, UniProt P35916) | cell-free assay | competition with immobilised ligand | – | – | 100%
Receptor-type tyrosine-protein kinase FLT3 (FLT3, Homo sapiens, UniProt P36888, N841I) | cell-free assay | competition with immobilised ligand | – | – | 89%

Set 3
Target: CCND3, cyclin fold, Cln2 fusion (human)
Technique: yeast growth competition, sequencing
Sample: yeast
Setting: weak parent motif
Relative to: not given
Direction: higher = stronger binding
Starting sequence: MICAL3 docking peptide (human); LQLRRQLSFSEDS; partner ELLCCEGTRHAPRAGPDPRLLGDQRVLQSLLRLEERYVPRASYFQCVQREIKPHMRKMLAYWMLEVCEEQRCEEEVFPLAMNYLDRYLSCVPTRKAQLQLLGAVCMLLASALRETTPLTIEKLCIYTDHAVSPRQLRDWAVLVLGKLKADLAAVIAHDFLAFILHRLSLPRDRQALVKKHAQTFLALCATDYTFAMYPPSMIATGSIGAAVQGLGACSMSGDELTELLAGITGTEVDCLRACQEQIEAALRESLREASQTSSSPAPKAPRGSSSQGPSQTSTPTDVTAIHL
Substitution | normalised enrichment score
R5T | 0.0777
E11F | -0.0667
E11M | -0.307
S8H | 0.693
S10R | 0.333
L7C | -0.181
E11N | 0.191
L7R | 0.217

Set 4
Target: TAR DNA-binding protein 43, full length, His tag (TARDBP, Homo sapiens, UniProt Q13148, residues 1-414)
Technique: RNA Bind-n-Seq
Molecule type: RNA
Sample: in vitro
Concentration: 20 nM
Setting: 6-mer, flanks averaged, single round
Added: 150 mM LiCl
Relative to: input library
Direction: higher = stronger binding
Sequence | 6-mer enrichment (R)
AGACUC | 0.853
AUUCUA | 0.881
UGGCGC | 1.05
AUUCAA | 0.859
UCAGGU | 0.926
CUUCAU | 0.9
UUCGGA | 0.942
CAAAUA | 0.898
